Measurements of several laboratories.
Each line is one published result; not all experiments were run side by side.
Potassium/sodium hyperpolarization-activated cyclic nucleotide-gated channel 1: Potassium/sodium hyperpolarization-activated cyclic nucleotide-gated channel 1 (Homo sapiens, UniProt O60741)
UniProt O60741, sequence (whole entry, looked up): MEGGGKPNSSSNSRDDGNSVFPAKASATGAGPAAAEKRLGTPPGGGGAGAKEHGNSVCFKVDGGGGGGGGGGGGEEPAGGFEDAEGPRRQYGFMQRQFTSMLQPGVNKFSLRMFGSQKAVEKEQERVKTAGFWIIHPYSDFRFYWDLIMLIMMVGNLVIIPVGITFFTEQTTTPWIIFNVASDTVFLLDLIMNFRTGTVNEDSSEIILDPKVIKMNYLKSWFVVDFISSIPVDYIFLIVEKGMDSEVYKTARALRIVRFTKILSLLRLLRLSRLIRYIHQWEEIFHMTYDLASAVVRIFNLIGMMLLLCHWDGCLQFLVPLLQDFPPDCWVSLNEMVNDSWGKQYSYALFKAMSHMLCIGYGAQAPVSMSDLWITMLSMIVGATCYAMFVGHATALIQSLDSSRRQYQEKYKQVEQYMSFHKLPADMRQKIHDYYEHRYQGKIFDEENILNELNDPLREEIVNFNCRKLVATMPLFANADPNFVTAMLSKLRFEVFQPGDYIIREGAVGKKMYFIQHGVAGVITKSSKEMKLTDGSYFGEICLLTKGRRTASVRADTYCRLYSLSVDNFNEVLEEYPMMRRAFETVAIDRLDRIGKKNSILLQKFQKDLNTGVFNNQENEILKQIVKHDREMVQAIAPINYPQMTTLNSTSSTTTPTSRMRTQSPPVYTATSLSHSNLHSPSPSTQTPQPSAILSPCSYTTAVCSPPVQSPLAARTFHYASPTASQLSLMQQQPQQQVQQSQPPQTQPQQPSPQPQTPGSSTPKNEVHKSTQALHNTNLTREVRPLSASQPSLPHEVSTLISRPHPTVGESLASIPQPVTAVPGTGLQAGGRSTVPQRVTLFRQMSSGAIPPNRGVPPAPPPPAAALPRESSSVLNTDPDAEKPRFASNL
CNR2: Cannabinoid receptor 2 (CNR2, Homo sapiens, UniProt P34972)
UniProt P34972, sequence (whole entry, looked up): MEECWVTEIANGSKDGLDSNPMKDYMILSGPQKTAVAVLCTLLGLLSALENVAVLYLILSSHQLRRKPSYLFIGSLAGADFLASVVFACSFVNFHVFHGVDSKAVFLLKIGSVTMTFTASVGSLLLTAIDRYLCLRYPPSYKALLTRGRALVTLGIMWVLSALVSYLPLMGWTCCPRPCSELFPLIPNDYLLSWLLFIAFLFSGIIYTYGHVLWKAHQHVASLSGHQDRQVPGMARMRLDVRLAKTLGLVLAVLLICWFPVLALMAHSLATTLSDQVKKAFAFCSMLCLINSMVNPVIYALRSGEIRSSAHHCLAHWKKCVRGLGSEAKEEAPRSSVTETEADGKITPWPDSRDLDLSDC
OPRM1: Mu-type opioid receptor (OPRM1, Homo sapiens, UniProt P35372)
UniProt P35372, sequence (whole entry, looked up): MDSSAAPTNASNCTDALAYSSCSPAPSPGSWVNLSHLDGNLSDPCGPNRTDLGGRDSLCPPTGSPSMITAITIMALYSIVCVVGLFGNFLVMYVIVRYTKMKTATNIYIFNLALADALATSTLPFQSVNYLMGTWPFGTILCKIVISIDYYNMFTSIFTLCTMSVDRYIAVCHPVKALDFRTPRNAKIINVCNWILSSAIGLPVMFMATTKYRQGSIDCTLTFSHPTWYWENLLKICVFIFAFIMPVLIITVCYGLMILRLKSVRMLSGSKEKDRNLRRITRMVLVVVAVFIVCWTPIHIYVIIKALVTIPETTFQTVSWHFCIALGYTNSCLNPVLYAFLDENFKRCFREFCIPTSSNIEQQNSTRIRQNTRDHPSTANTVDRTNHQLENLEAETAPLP
UniProt Q96SB4, sequence (whole entry, looked up): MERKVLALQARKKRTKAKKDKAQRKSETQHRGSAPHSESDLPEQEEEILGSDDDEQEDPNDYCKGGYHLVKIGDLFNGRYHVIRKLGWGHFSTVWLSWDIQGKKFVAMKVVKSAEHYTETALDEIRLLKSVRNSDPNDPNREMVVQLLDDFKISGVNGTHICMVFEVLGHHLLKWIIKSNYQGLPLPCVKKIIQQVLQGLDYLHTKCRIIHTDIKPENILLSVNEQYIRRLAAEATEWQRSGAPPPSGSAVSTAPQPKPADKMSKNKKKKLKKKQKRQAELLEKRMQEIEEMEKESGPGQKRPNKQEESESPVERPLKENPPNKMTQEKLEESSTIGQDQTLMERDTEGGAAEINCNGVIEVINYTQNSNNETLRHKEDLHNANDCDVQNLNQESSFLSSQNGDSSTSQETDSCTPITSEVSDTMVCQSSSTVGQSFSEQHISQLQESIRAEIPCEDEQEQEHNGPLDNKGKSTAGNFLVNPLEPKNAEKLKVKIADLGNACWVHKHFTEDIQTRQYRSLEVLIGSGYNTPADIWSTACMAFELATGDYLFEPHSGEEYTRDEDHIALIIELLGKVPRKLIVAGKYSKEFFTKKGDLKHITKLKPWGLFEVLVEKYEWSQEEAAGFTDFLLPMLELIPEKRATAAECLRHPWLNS
UniProt Q01959, sequence (whole entry, looked up): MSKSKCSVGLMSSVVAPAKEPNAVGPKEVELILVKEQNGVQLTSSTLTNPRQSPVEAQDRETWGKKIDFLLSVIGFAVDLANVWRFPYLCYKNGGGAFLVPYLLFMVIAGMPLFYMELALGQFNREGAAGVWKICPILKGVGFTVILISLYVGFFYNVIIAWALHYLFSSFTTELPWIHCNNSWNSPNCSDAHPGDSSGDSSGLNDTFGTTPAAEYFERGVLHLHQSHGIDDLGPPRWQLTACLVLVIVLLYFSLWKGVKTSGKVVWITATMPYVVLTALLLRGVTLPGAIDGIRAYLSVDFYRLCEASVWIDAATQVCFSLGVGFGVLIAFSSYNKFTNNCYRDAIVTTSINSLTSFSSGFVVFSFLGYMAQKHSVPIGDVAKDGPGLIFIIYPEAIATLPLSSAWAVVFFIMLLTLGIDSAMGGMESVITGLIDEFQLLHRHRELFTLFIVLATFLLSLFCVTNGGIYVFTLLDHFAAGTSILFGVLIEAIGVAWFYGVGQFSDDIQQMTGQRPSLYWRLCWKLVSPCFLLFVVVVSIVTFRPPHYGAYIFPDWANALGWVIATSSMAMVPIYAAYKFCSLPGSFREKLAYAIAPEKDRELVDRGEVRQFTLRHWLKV
UniProt O94921, sequence (whole entry, looked up): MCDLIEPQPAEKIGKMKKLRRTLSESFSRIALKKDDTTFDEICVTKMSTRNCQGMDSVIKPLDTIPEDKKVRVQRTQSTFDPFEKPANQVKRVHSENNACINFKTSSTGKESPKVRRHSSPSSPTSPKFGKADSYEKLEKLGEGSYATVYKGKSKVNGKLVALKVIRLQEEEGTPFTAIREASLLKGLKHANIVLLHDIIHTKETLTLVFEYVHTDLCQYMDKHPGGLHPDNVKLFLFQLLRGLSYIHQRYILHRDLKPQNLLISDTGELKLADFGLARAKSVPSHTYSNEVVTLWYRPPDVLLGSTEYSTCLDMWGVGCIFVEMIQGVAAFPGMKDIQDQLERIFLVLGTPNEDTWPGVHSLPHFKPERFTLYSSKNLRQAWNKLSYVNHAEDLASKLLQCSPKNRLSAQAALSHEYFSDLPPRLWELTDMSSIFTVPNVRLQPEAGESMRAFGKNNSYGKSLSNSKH
UniProt P42336, sequence (whole entry, unmodified, looked up): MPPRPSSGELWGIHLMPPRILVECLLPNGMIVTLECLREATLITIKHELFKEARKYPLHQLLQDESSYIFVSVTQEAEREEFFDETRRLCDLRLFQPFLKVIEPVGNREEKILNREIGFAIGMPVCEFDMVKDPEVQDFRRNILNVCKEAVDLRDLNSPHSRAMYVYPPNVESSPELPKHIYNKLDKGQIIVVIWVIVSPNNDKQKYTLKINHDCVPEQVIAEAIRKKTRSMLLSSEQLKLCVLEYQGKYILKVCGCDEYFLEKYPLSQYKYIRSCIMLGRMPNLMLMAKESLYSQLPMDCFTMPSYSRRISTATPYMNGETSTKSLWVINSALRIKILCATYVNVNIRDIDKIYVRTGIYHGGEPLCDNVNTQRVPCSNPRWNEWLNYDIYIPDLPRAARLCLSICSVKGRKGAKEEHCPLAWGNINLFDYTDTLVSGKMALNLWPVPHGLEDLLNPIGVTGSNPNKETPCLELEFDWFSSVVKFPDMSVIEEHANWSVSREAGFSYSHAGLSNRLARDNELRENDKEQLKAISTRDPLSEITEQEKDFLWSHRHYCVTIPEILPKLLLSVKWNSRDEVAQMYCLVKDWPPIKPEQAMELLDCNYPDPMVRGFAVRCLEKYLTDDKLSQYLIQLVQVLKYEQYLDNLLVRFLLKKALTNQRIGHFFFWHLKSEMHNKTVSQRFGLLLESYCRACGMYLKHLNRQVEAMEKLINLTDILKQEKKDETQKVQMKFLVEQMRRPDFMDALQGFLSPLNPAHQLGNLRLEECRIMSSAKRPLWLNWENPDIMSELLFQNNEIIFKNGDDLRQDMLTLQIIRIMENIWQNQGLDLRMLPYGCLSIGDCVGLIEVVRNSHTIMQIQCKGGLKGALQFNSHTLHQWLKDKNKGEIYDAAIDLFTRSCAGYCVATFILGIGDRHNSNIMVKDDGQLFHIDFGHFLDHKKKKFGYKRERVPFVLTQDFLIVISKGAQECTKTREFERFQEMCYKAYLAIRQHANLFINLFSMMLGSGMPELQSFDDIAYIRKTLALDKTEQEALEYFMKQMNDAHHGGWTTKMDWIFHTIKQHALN
UniProt O33336, sequence (whole entry, looked up): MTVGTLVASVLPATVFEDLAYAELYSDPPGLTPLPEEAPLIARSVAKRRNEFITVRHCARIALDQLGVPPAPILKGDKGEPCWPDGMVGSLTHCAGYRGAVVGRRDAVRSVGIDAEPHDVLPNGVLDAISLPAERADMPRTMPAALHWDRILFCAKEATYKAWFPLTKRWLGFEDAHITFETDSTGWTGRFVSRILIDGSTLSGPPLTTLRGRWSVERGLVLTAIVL

`CCCN1C[C@H](CSC)C[C@@H]2c3cccc4[nH]cc(c34)C[C@H]21` has an inhibition of 4.55% (Potassium/sodium hyperpolarization-activated cyclic nucleotide-gated channel 1; ion current, inhibitor; 10 µM).
`COc1ccc(Nc2nn3c(-c4ccccc4)ccnc3c2C(=O)Nc2ccccc2)cc1` has a viability of 47.7% (A549; cell growth or viability, MTT; 50 µg/mL, 48 h, serum-free).
`CC(C)CC(=O)OC[C@H]1O[C@@](C#N)(c2ccc3c(N)ncnn23)[C@H](O)[C@@H]1O` gave an inhibition of 18% (Kappa-type opioid receptor (OPRK1, Homo sapiens, UniProt P41145); cell-free assay; 20 µM).
`CCCCC/C=C\[C@H](C)/C=C\C/C=C\Cc1ccccc1CCCC(=O)OC(CO)CO` gave an Emax of 69% (CNR2; β-arrestin recruitment, agonist).
For `Oc1cccc(N2[C@@H]3CC[C@H]2CN(CC2CC2)C3)c1`, the Emax was 78.6% (OPRM1; cAMP, agonist; OPRM1).
`C#Cc1n[nH]c2c(-c3cn(C(C)c4ccccn4)c(=O)[nH]c3=O)cc(F)cc12` (stereo not shown) has an inhibition of 6.7% (SRSF protein kinase 1 (SRPK1, Homo sapiens, UniProt Q96SB4); enzyme activity, inhibitor; 1 µM).
With `CN1CCC[C@H]1c1cccnc1` the inhibition was -6.15% (Sodium-dependent dopamine transporter (SLC6A3, Homo sapiens, UniProt Q01959); ligand displacement; 50 µM).
`[2H]c1c([2H])c([C@]2([2H])CCCN2C(=O)C(C)(C)Oc2ccc3cn[nH]c3c2)c([2H])c([2H])c1C([2H])([2H])[2H]` gave a remaining binding of 83% (Calcium/calmodulin-dependent protein kinase type II subunit gamma (CAMK2G, Homo sapiens, UniProt Q13555); binding, competition with immobilised ligand; 1 µM).
With `CCCCC/C=C\[C@H](C)/C=C\C/C=C\Cc1ccccc1CCCC(=O)N[C@H](C)CO` the Emax was 53% (CNR2; β-arrestin recruitment, agonist).
`c1cncc([C@@H]2CCCN2)c1` has an inhibition of 1.45% (D(1B) dopamine receptor (DRD5, Homo sapiens, UniProt P21918); ligand displacement; 50 µM).
For `COc1ncccc1-c1cnn2ccc(N3CCN(C(=O)OC(C)C)CC3)nc12`, the remaining binding was 90% (Cyclin-dependent kinase 14 (CDK14, Homo sapiens, UniProt O94921); binding, competition with immobilised ligand; 1 µM).
For `Nc1ncc(-c2nc(N3CCOCC3)nc(N3CCOCC3)n2)c(C(F)F)n1`, the remaining binding was 91% (Mitogen-activated protein kinase kinase kinase 12 (MAP3K12, Homo sapiens, UniProt Q12852); binding, competition with immobilised ligand; 10 µM).
`Cc1nn(C)cc1-c1nc2c(N3CCN(Cc4ccc(Cl)cc4)CC3)c(Cl)cnc2[nH]1` gave a remaining binding of 75% (Phosphatidylinositol 4,5-bisphosphate 3-kinase catalytic subunit alpha isoform (PIK3CA, Homo sapiens, UniProt P42336, E545A); binding, competition with immobilised ligand; 1 µM).
For `COc1cc(CCNC(C)c2ccccc2O)c(OC)cc1C#N` (stereo not shown), the Ki was 0.279 µM (Beta-2 adrenergic receptor (ADRB2, Homo sapiens, UniProt P07550); cell-free assay, radioligand).
The inhibition of `Cc1nnc(SCC2=C(C(=O)O)N3C(=O)[C@@H](NC(=O)Cn4cnnn4)[C@H]3SC2)s1` is reported as -1.03% (Potassium/sodium hyperpolarization-activated cyclic nucleotide-gated channel 1; ion current, inhibitor; 3 µM).
For `CCN(CC)CCCC[C@H](NC(=O)[C@H](CC(C)C)NC(=O)[C@H](C)NC(=O)[C@H](Cc1ccccc1)NC(=O)c1ccc(C(C)(C)C)cc1)C(=O)N[C@@H](CO)C(=O)OC`, the ΔTm was 0.37 °C (Tyrosine-protein kinase BAZ1B (BAZ1B, Homo sapiens, UniProt Q9UIG0); thermal stability, DSF; 25 µM).
The CL/F of `CC[C@H](C)[C@H](NC(=O)[C@H](Cc1ccccc1)NC(=O)[C@H](CCC(=O)O)NC(=O)[C@H](CCCNC(=N)N)NC(=O)[C@H](C)NC(=O)[C@H](C)NC(=O)[C@H](CCC(N)=O)NC(=O)[C@H](CCC(=O)O)NC(=O)[C@H](CCC(=O)O)NC(=O)[C@H](CC(C)C)NC(=O)[C@H](Cc1ccc(O)cc1)NC(=O)[C@H](CO)NC(=O)[C@H](CO)NC(=O)[C@@H](NC(=O)[C@H](CC(=O)O)NC(=O)[C@H](CO)NC(=O)[C@@H](NC(=O)[C@H](Cc1ccccc1)NC(=O)[C@@H](NC(=O)CNC(=O)[C@H](CCC(=O)O)NC(=O)[C@H](C)NC(=O)CCc1c[nH]cn1)[C@@H](C)O)[C@@H](C)O)C(C)C)C(=O)N[C@@H](C)C(=O)N[C@@H](Cc1c[nH]c2ccccc12)C(=O)N[C@@H](CC(C)C)C(=O)N[C@H](C(=O)N[C@@H](CCCNC(=N)N)C(=O)NCC(=O)N[C@@H](CCCNC(=N)N)C(=O)N[C@@H](CCCCNC(=O)COCCOCCNC(=O)COCCOCCNC(=O)CC[C@H](NC(=O)CCCCCCCCCCCCCCCCC(=O)O)C(=O)O)C(=O)NCC(=O)NCC(=O)N[C@@H](CO)C(=O)N[C@@H](CCCCNc1c(NCCCCCN(O)C(=O)CCC(=O)NCCCCCN(O)C(=O)CCC(=O)NCCCCCN(O)C(C)=O)c(=O)c1=O)C(=O)O)C(C)C` is reported as 0.234 mL/min/kg (rat, plasma; subcutaneous, 20 nmol/kg).
`COCc1cc2[nH]c(=S)n(Cc3cccnc3)c(=O)c2cc1Cl` has an IC50 of 7.25 µM (4'-phosphopantetheinyl transferase PptT (Mycobacterium tuberculosis, UniProt O33336); enzyme activity, inhibitor, FP).
`COc1ccc(Nc2nn3c(-c4ccccc4)ccnc3c2C(=O)Nc2ccc(Cl)cc2)cc1` gave a viability of 40.4% (Caco-2; cell growth or viability, MTT; 12.5 µg/mL, 48 h, serum-free).
The inhibition of `N.N.[Cl][Pt][Cl]` is reported as 100% (SU-DHL-1; cell growth or viability, ATP luminescence; 10 µM, 72 h).
With `Oc1cccc(N2CCN(CCCc3ccccc3)CC2)c1` the Emax was 0% (OPRM1; cAMP, agonist; OPRM1).
`C#Cc1ccc2c(c1)C(c1ccccn1)=NCc1c(-c3cnco3)ncn1-2.Cl` gave a kinetic solubility of 4900 µg/mL (water; 90 min, 37 °C).

Repeated from above:
The CL/F of `CC[C@H](C)[C@H](NC(=O)[C@H](Cc1ccccc1)NC(=O)[C@H](CCC(=O)O)NC(=O)[C@H](CCCNC(=N)N)NC(=O)[C@H](C)NC(=O)[C@H](C)NC(=O)[C@H](CCC(N)=O)NC(=O)[C@H](CCC(=O)O)NC(=O)[C@H](CCC(=O)O)NC(=O)[C@H](CC(C)C)NC(=O)[C@H](Cc1ccc(O)cc1)NC(=O)[C@H](CO)NC(=O)[C@H](CO)NC(=O)[C@@H](NC(=O)[C@H](CC(=O)O)NC(=O)[C@H](CO)NC(=O)[C@@H](NC(=O)[C@H](Cc1ccccc1)NC(=O)[C@@H](NC(=O)CNC(=O)[C@H](CCC(=O)O)NC(=O)[C@H](C)NC(=O)CCc1c[nH]cn1)[C@@H](C)O)[C@@H](C)O)C(C)C)C(=O)N[C@@H](C)C(=O)N[C@@H](Cc1c[nH]c2ccccc12)C(=O)N[C@@H](CC(C)C)C(=O)N[C@H](C(=O)N[C@@H](CCCNC(=N)N)C(=O)NCC(=O)N[C@@H](CCCNC(=N)N)C(=O)N[C@@H](CCCCNC(=O)COCCOCCNC(=O)COCCOCCNC(=O)CC[C@H](NC(=O)CCCCCCCCCCCCCCCCC(=O)O)C(=O)O)C(=O)NCC(=O)NCC(=O)N[C@@H](CO)C(=O)N[C@@H](CCCCNc1c(NCCCCCN(O)C(=O)CCC(=O)NCCCCCN(O)C(=O)CCC(=O)NCCCCCN(O)C(C)=O)c(=O)c1=O)C(=O)O)C(C)C` is reported as 0.234 mL/min/kg (rat, plasma; subcutaneous, 20 nmol/kg).
`COc1ccc(Nc2nn3c(-c4ccccc4)ccnc3c2C(=O)Nc2ccc(Cl)cc2)cc1` gave a viability of 40.4% (Caco-2; cell growth or viability, MTT; 12.5 µg/mL, 48 h, serum-free).
